Measurements from different studies.
Protocols differ between the studies behind these lines. ± marks the error that the study gave. Non-standard residues stand in square brackets, D forms with d. Ends that are not written are not given here. No end group written: not given here.
B1: CSM1 (Saccharomyces cerevisiae, UniProt P25651); sequence looked up; chain MDPLTVYKNSVKQQIDSADLLVANLVNENFVLSEKLDTKATEIKQLQKQIDSLNAQVKELKTQTSQQAENSEVIKDLYEYLCNVRVHKSYEDDSGLWFDISQGTHSGGSSDDYSIMDYKLGFVKGQAQVTEVIYAPVLKQRSTEELYSLQSKLPEYLFETLSFPLSSLNQFYNKIAKSLNKKREKKDETE
B2: nqo4 (Thermus thermophilus, UniProt Q56220); sequence looked up; chain MREEFLEEIPLDAPPEEAKELRTEVMTLNVGPQHPSTHGVLRLMVTLSGEEVLEVVPHIGYLHTGFEKTMEHRTYLQNITYTPRMDYLHSFAHDLAYALAVEKLLGAVVPPRAETIRVILNELSRLASHLVFLGTGLLDLGALTPFFYAFRERETILDLFEWVTGQRFHHNYIRIGGVKEDLPEEFVPELKKLLEVLPHRIDEYEALFAESPIFYERARGVGVIPPEVAIDLGLTGGSLRASGVNYDVRKAYPYSGYETYTFDVPLGERGDVFDRMLVRIREMRESVKIIKQALERLEPGPVRDPNPQITPPPRHLLETSMEAVIYHFKHYTEGFHPPKGEVYVPTESARGELGYYIVSDGGSMPYRVKVRAPSFVNLQSLPYACKGEQVPDMVAIIASLDPVMGDVDR
B3: tost-1 (Caenorhabditis elegans, UniProt Q18490); sequence looked up; chain MTTAIQYQVIPLADREHSNKVASILENKYKTATNKRITLNERFGVLEKGYTIQATEPETVKNDSDVFFVVHDRNLNSKKEFVENYLAKNPIVNSPEKVFEEEDKENAPTKKAVLKPSSTDEKKLTSSDIYIQEITRSILQSV
B4: MACROD2 7-243 (Homo sapiens, UniProt A1Z1Q3); sequence looked up; chain KKKVWREEKERLLKMTLEERRKEYLRDYIPLNSILSWKEEMKGKGQNDEENTQETSQVKKSLTEKVSLYRGDITLLEVDAIVNAANASLLGGGGVDGCIHRAAGPCLLAECRNLNGCDTGHAKITCGYDLPAKYVIHTVGPIARGHINGSHKEDLANCYKSSLKLVKENNIRSVAFPCISTGIYGFPNEPAAVIALNTIKEWLAKNHHEVDRIIFCVFLEVDFKIYKKKMNEFFSVD
B5: nusG 42-233 (Thermotoga maritima, UniProt P29397); sequence looked up; chain EEVVLDATSPSERLILSPKAKLHVNNGKDVNKGDLIAEEPPIYARRSGVIVDVKNVRKIVVETIDRKYTKTYYIPESAGIEPGLRVGTKVKQGLPLSKNEEYICELDGKIVEIERMKKVVVQTPDGEQDVYYIPLDVFDRDRIKKGKEVKQGEMLAEARKFFAKVSGRVEVVDYSTRKEIRIYKTKRRKLFP
B6: PUM1 589-827 (Homo sapiens, UniProt Q14671); sequence looked up; chain ISSSAAQAAVAAAAASANGAAGGLAGTTNGPFRPLGTQQPQPQPQQQPNNNLASSSFYGNNSLNSNSQSSSLFSQGSAQPANTSLGFGSSSSLGATLGSALGGFGTAVANSNTGSGSRRDSLTGSSDLYKRTSSSLTPIGHSFYNGLSFSSSPGPVGMPLPSQGPGHSQTPPPSLSSHGSSSSLNLGGLTNGSGRYISAAPGAEAKYRSASSASSLFSPSSTLFSSSRLRYGMSDVMPS
B7: S100A8 1-93 C42S (Homo sapiens, UniProt P05109); chain MLTELEKALNSIIDVYHKYSLIKGNFHAVYRDDLKKLLETESPQYIRKKGADVWFKELDINTDGAVNFQEFLILVIKMGVAAHKKSHEESHKE
B8: TIF4631 572-853 K590R (Saccharomyces cerevisiae, UniProt P39935); sequence looked up; chain LVPSANRWVPKFKSKKTERKLAPDGKTELLDKDEVERKMKSLLNKLTLEMFDAISSEILAIANISVWETNGETLKAVIEQIFLKACDEPHWSSMYAQLCGKVVKELNPDITDETNEGKTGPKLVLHYLVARCHAEFDKGWTDKLPTNEDGTPLEPEMMSEEYYAAASAKRRGLGLVRFIGFLYRLNLLTGKMMFECFRRLMKDLTDSPSEETLESVVELLNTVGEQFETDSFRTGQATLEGSQLLDSLFGILDNIIQTAKISSRIKFKLIDIKELRHDKNWN
B9: SPT15 (Saccharomyces cerevisiae, UniProt P13393); sequence looked up; chain MADEERLKEFKEANKIVFDPNTRQVWENQNRDGTKPATTFQSEEDIKRAAPESEKDTSATSGIVPTLQNIVATVTLGCRLDLKTVALHARNAEYNPKRFAAVIMRIREPKTTALIFASGKMVVTGAKSEDDSKLASRKYARIIQKIGFAAKFTDFKIQNIVGSCDVKFPIRLEGLAFSHGTFSSYEPELFPGLIYRMVKPKIVLLIFVSGKIVLTGAKQREEIYQAFEAIYPVLSEFRKM
B10: enzyme (Bacillus pumilus, UniProt A8FFI9); chain EARSIAWSVDEFFKNREGTFVIQEVKEKSPWVYNKKRAKERFAPQSTFKVANALIGLQTGAVRDEYDIKYWDGVKREIDNWNRDHTLGSGMRDSVVWYYQAMARDIGEERMNHWVKAIHYGNKDISGGIDQFWLSSTLRISPIEQVRFLKQLYEETLPFDLKNMRTVKRMMVQEEEKHATLYGKTGSGSDIGWYVGFIKHEHKTYILATNIKGTGIEAKDITYRILKKYHLMEASV
B11: prf1 aRF1 (Aeropyrum pernix, UniProt Q9YAF1); chain MSQGRLEERLTISKRELARLLKELKKWSAPATVLLSLYIPPGRPLSDVMTLLRQEYSITDNIKLKRTRQAVKRALSAAMDRLQMLTSTPPNGLVLFCGEDMSTGKFECFMFSPPEPIRVFYYRTDKRFITDFLEDMVEDNNAIGIIIVERDQATIGLLKGARLEVLKELEGFVPGKHKMGGQSQRRYERIIEQMVDEFFKKVGEEASNLLVPLAEKGVLKGVIVAGPGLAKQEFVEGNYLDYRLKKILAPELVDVAYQGLQGLKEAVMKAEKVVEAQMYRDAVNAMEEFKLHLAKGTGMIVYGEKDVEAALEMGAVKTLLIHESREDLEEWVEKAKSSGAQVIVVPESLAEAEWFLKTFGGLAGILRFRISTV

Molecule | tested on | test | system | conditions | measurement | value
B1 (CSM1) | MTW1/NSL1/NNF1/DSN1 MIND complex (Saccharomyces cerevisiae) | pull-down | – | – | binding | binds
B2 (nqo4) | nqo7/nqo8/nqo10/nqo11/nqo12/nqo13/nqo14 membrane domain (Thermus thermophilus) | SEC | – | – | binding | binds
UGT1A9 (Homo sapiens, UniProt O60656) | COc1cccc(-c2oc3ccccc3c(=O)c2O)c1 | steady-state kinetics | – | pH 7.4, 37 °C | Vmax/Km | 46000 µL/min/mg
B3 (tost-1) | IFE-3/TOFU-6/PID-3/ERH-2 (Caenorhabditis elegans) | pull-down | – | – | binding | binds
EYSEEELKT (also: fluorescent label and quencher, sites not given here; sequence looked up) | SIRT3 (Homo sapiens, UniProt Q9NTG7) | enzyme activity, substrate, continuous fluorescence | peptide | 5 to 15 min, pH 8.0, 37 °C, enzyme 0.4 µM, buffer 2, with: NAD+ 1 mM | Km | 4.75 ± 0.79 µM
B4 (MACROD2 7-243) | PARP1 automodified, auto-ADP-ribosylated (Homo sapiens, UniProt P09874) | pull-down | – | 4 °C | binding | binds
KYKLADYRYGREEMLALFLK (GIGYF2(35-54) peptide; sequence looked up) | EIF4E2 (Homo sapiens, UniProt O60573) | binding, isothermal titration calorimetry | peptide | pH 7.0, 20 °C | Kd | 290 nM
GAGUUGAGUUGAGUUGAGUUGAGUUGAGUUGAGUUGAGUUGAGUUGAGUUGAGUU (ssRNA; single strand) | mtrB full length assumed T30V/K56V (Bacillus subtilis, UniProt P19466) | filter binding | – | with: L-tryptophan 1 mM | Kd | 98 ± 9 nM
S. cerevisiae FACT complex | HTB1/HTA1 (Saccharomyces cerevisiae, UniProt P02293+P04911) | ITC | – | second of two sites | Kd | 1620 nM
B5 (nusG 42-233) | rpoC/rpoZ (Thermotoga maritima) | NMR titration | – | pH 7.5, 323 K, NaCl 50 mM | binding | binds
human cathepsin G | Protein S100-A9 (S100A9, Homo sapiens, UniProt P06702) | ELISA | – | up to 100 nM | binding | no binding
B6 (PUM1 589-827) | CNOT1/CNOT2/CNOT3 NOT module 1833-2361 (Homo sapiens) | pull-down | – | – | binding | binds
B7 (S100A8 1-93 C42S) | S100A9 1-114 C3S/H103A/H105A/K106H (Homo sapiens, UniProt P06702) | SEC | – | without Ca2+ | binding | binds
B8 (TIF4631 572-853 K590R) | TIF1 E28C/G370C, Alexa488/Alexa546 labels (Saccharomyces cerevisiae, UniProt P10081) | conformation of molecule, smFRET | – | – | binding | binds
B9 (SPT15) | SAGA complex (Saccharomyces cerevisiae, UniProt P38811) | native gel or EMSA | – | 20 min, with: Cy3-labeled TATA-box dsDNA 75 nM | binding | binds
B10 (enzyme) | O=C(Cc1cccs1)N[C@@H]1C(=O)N2C(C(=O)O)=C(/C=C/c3ccc([N+](=O)[O-])cc3[N+](=O)[O-])CS[C@H]12 | steady-state kinetics | – | pH 7 | kcat/Km | 1e+07 ± 1e+06 M⁻¹ s⁻¹
SLINKSKSSMF (CD36 residues 160-170 (Homo sapiens)) | ALB, CEP-modified (Homo sapiens, UniProt P02768) | competition with ligand, SPR | peptide | – | binding | binds
MAIFLDHILNKFWILHYAGSGSSG (SPAM peptide P2A; peptide-RNA fusion) | CD274 ectodomain (Homo sapiens) | radioligand binding | peptide | 1 h, 4 °C | binding | binds
Ac-EIRCDEKPEDL-NH2 (PRDM2 residues 309-319 (Homo sapiens); N-acetyl, C-terminal amide) | RB1 372-581 linked 636-787 (Homo sapiens, UniProt P06400) | NMR titration | peptide | – | binding | binds
B11 (prf1 aRF1) | tuf 7-437 K99A/R309A (Aeropyrum pernix, UniProt Q9YAV0) | pull-down | – | – | binding | binds
{VPS26(1–321)}-TAQPELYLLNT[SeMet] (SLC11A2 549-560 (Homo sapiens, UniProt P49281); SeMet = C[Se]CC[C@H](N)C(=O)O; sequence looked up) | VPS26A fragment (Homo sapiens) | crystal structure | peptide | – | binding | binds

Some of these lines once more:
Molecule | tested on | test | system | conditions | measurement | value
Ac-EIRCDEKPEDL-NH2 (PRDM2 residues 309-319 (Homo sapiens); N-acetyl, C-terminal amide) | RB1 372-581 linked 636-787 (Homo sapiens, UniProt P06400) | NMR titration | peptide | – | binding | binds
